Measured values gathered from unrelated publications.
Each line is one published result; not all experiments were run side by side.
Cell line: SK-OV-3

`CC(C)(C)c1cc2c(O)c(c1)Cc1cc(C(C)(C)C)cc(c1OCC(=O)Nc1cncc3ccccc13)Cc1cc(C(C)(C)C)cc(c1O)Cc1cc(C(C)(C)C)cc(c1OCC(=O)Nc1cncc3ccccc13)COC2` gave an inhibition of 75% (cell growth or viability, MTT; 15 µM, 72 h).
With `CC(=O)c1cccc(NC2C(NC(=O)OCc3ccccc3)C(NC(=O)N(C)C)(C(C)O)C(C)(O)C2(O)COC(=O)c2c(C)cccc2O)c1` (stereo not drawn) the EC50 was 12 µM (cell growth or viability).
For `CC(Cc1ccc(Cl)cc1)=C(c1ccc(Cl)cc1)c1ccc(OCCN(C)C)cc1`, the GI50 was 5.42 µM (cell growth or viability).
For `CC(C)(C)c1cc2c(O)c(c1)Cc1cc(C(C)(C)C)cc(c1OCC(=O)Nc1cccc3cccnc13)Cc1cc(C(C)(C)C)cc(c1O)Cc1cc(C(C)(C)C)cc(c1OCC(=O)Nc1cccc3cccnc13)COC2`, the inhibition was 39% (cell growth or viability, MTT; 15 µM, 72 h).
With `Clc1cc2nc(-c3cc4cc5c(cc4nc3Cl)OCO5)[nH]c2cc1Cl` the IC50 was > 100 µM (cell growth or viability, MTT; 48 h).
The onset concentration of `CN[C@@H](C)C(=O)N[C@H]1CN(C(=O)Cc2ccccc2)CC[C@H]2CC[C@@H](C(=O)NCc3ccc(C(F)(F)F)cc3)N2C1=O` is reported as > 100 nM (cIAP1 degradation, western blot, item: cIAP1; 24 h).
For `CC/C=C\C/C=C\C/C=C\C/C=C\C/C=C\C/C=C\CCC(=O)Nc1ccn(C2OC(CO)C(O)C2(F)F)c(=O)n1` (stereo not drawn), the TGI was 14.2 µM (NCI60 screen).
`CC(C)(C)c1cc2c(O)c(c1)Cc1cc(C(C)(C)C)cc(c1OCC(=O)Nc1ccncc1)Cc1cc(C(C)(C)C)cc(c1O)Cc1cc(C(C)(C)C)cc(c1OCC(=O)Nc1ccncc1)COC2` gave an inhibition of 36% (cell growth or viability, MTT; 15 µM, 72 h).
`CN[C@@H](C)C(=O)N[C@H]1CN(C(=O)Cc2ccccc2)CC[C@H]2CC[C@@H](C(=O)NCc3ccc(Br)cc3)N2C1=O`: “minimum effective concentration” 100 to 300 nM (apoptosis, annexin V/PI flow cytometry; 24 h).
`C=C(CC)C(=O)c1ccc(OCC(=O)NCCNC(=O)COc2ccc(C(=O)C(=C)CC)c(Cl)c2Cl)c(Cl)c1Cl` gave an inhibition of > 50% (cell growth or viability, CCK-8; 2.5 µM).
For `CC(=O)OCC1(O)C(Nc2cccc(C(C)=O)c2)C(N)C(NC(=O)N(C)C)(C(C)OC(C)=O)C1(C)O` (stereo not drawn), the EC50 was 0.123 µM (cell growth or viability).
`COc1ccc2nc(Cl)c(-c3nc4cc(Cl)c(Cl)cc4[nH]3)cc2c1` gave an IC50 of 17.9 µM (cell growth or viability, MTT; 48 h).
`CC(C)(C)c1cc2c(O)c(c1)Cc1cc(C(C)(C)C)cc(c1OCC(=O)Nc1nccs1)Cc1cc(C(C)(C)C)cc(c1O)Cc1cc(C(C)(C)C)cc(c1OCC(=O)Nc1nccs1)COC2` gave an inhibition of 40% (cell growth or viability, MTT; 15 µM, 72 h).
The IC50 of `Cc1ccc2nc(Cl)c(-c3nc4cc(C)c(C)cc4[nH]3)cc2c1` is reported as > 100 µM (cell growth or viability, MTT; 48 h).
`CC(=O)OC[C@H]1O[C@@H](Sc2sc(C(=O)c3ccc(Br)cc3)c(N)c2-c2nc3ccccc3s2)[C@H](OC(C)=O)[C@@H](OC(C)=O)[C@@H]1OC(C)=O` has a growth of 96.6% (SRB; 10 µM, 48 h; relative to: untreated).
With `Fc1ccc2[nH]c(-c3cc4cc5c(cc4nc3Cl)OCO5)nc2c1` the IC50 was > 100 µM (cell growth or viability, MTT; 48 h).
`CC(=C(c1ccc(O)cc1)c1ccc(Cl)cc1)c1ccc(Cl)cc1` has a GI50 of 1.04 µM (cell growth or viability).
The IC50 of `COc1ccc2nc(Cl)c(-c3nc4cc(F)ccc4[nH]3)cc2c1` is reported as > 100 µM (cell growth or viability, MTT; 48 h).
With `CC(=O)OC[C@H]1O[C@@H](Sc2sc(C(=O)c3ccc(C)cc3)c(N)c2-c2nc3ccccc3s2)[C@H](OC(C)=O)[C@@H](OC(C)=O)[C@@H]1OC(C)=O` the growth was 89.9% (SRB; 10 µM, 48 h; relative to: untreated).
With `Clc1nc2ccccc2cc1-c1nc2cc(Br)ccc2[nH]1` the IC50 was 34.1 µM (cell growth or viability, MTT; 48 h).
`CC(C)(C)c1cc2c(O)c(c1)Cc1cc(C(C)(C)C)cc(c1OCC(=O)NCc1ccccn1)Cc1cc(C(C)(C)C)cc(c1O)Cc1cc(C(C)(C)C)cc(c1OCC(=O)NCc1ccccn1)COC2` gave an inhibition of 54% (cell growth or viability, MTT; 15 µM, 72 h).

Excerpt of the above:
For `CC(C)(C)c1cc2c(O)c(c1)Cc1cc(C(C)(C)C)cc(c1OCC(=O)Nc1cccc3cccnc13)Cc1cc(C(C)(C)C)cc(c1O)Cc1cc(C(C)(C)C)cc(c1OCC(=O)Nc1cccc3cccnc13)COC2`, the inhibition was 39% (cell growth or viability, MTT; 15 µM, 72 h).
The IC50 of `COc1ccc2nc(Cl)c(-c3nc4cc(F)ccc4[nH]3)cc2c1` is reported as > 100 µM (cell growth or viability, MTT; 48 h).
For `CC(=O)OCC1(O)C(Nc2cccc(C(C)=O)c2)C(N)C(NC(=O)N(C)C)(C(C)OC(C)=O)C1(C)O` (stereo not drawn), the EC50 was 0.123 µM (cell growth or viability).
